Measured values pooled from the literature.
Each numbered part is a random draw from the data of one study; scales do not carry over between parts.

Block 1 — technique: RNA Bind-n-Seq; molecule type: RNA; sample: in vitro; tested at: 365 nM; reference: no-protein control; direction: higher = stronger binding; quantity: RBNS enrichment (R)
Target: RNA binding protein fox-1 homolog 2, RRM domain, GST-SBP tag (RBFOX2, Homo sapiens, UniProt O43251-10, residues 100-194)
Notes: natural RNA segment, single round, ends assumed
Target sequence (chain): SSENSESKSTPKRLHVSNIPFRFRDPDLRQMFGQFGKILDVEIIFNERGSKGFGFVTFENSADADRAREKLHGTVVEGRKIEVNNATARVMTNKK
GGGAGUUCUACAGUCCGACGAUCUAAGUAUGAUGCAAAAUGAGAGGUAGGAUGUGUAGCAGGAUUCCAAAUUUUAGCUUAAUUGUCUUUGACAAUGGACUAUUUGGAGAAAUGAAUGAAUAGGUUGUGGCUGUUGGAAUUCUCGGGUGCCAA: 2.6
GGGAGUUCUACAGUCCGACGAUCGAGCGAAGACUGCUCCUGGUGGCCUGUGCAUAGGGAAGCGGCAGCAUCGGAUGUCAGCCCCCUGCGGCCCCAGCUGGAGAUGGAUAUGAGACUAGUCAAGAUGUGAAUGCUGGAAUUCUCGGGUGCCAA: 1.65
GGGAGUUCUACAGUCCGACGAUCCGUAAGCAUAUACAAUCCACUUCCCACUAAGAAUUAGGGUCAAAGACAUUCUAUUUGAACACUUGCAAUUACCUAGAUCUAGUUGGCCUUUGGUUGAUAGAUCCUCUGCCUGGAAUUCUCGGGUGCCAA: 0.653
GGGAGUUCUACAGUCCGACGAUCACAGUCAAGAUACAUAGUAAAUGGUAUCAUUUGGAAAUCAGCAUCGUGGGCACUGCUGAGGAAUGAUCCUAGUGGUAGGUCAGAAGAAGAUGCUGUGAACACCAGGACUUUGGAAUUCUCGGGUGCCAA: 0.634
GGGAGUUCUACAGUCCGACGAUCUUACAGAGUAAUCUUUGAUUUCUCCAUCUGAUGUGGCCCUGGGAGCUGGAGCAAGAGUCCACCUUUAGCUGUGCCUGCCUUUACUUCUGUGCCUCACAAGUGCCUUUUGAUGGAAUUCUCGGGUGCCAA: 0.354

Block 2 — technique: competition protein-binding microarray; molecule type: double-stranded DNA, one strand shown; sample: in vitro; tested at: 2 µM; with: Pho4 competitor, 0.05 µM; direction: higher = stronger binding; quantity: fluorescence intensity
Target: Centromere-binding protein 1, full length, His-tagged (CBF1, Saccharomyces cerevisiae, UniProt P17106, residues 1-351)
UniProt P17106, sequence (whole entry, looked up): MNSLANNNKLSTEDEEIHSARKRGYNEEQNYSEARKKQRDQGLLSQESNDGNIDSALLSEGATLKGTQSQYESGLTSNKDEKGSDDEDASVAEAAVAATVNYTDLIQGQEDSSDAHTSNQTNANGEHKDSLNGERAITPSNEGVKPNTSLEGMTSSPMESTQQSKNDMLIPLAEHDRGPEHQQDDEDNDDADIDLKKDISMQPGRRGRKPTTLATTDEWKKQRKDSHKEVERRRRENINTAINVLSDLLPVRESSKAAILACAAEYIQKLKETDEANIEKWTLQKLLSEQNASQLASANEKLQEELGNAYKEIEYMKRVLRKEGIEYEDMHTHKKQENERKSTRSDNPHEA
Notes: whole 60-bp probe, lowest competitor level
CCACATCTGTCTCTCAATGGTCAAATACCGTTTTAAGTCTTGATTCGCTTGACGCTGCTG: 59.8 a.u.
CGTCCTAGTGATTGGCTGGTGGGTGCCATGAGGAAGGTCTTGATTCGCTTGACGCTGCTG: 75.1 a.u.
GCTACCCCGGCCTGCCGTGTGGCTCTCTGTGCGAAGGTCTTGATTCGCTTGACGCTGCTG: 52.1 a.u.
ATTTCTTTTCCAATTCACGGGTCAATTTGGTTTGGAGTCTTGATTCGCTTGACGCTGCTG: 108 a.u.
CTAACGAAGGTTTGACCCGTGGGTGACAAGCCAAGTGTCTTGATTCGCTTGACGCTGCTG: 71.8 a.u.

Block 3 — technique: protein binding microarray; molecule type: double-stranded DNA, one strand shown; sample: in vitro; tested at: not given; reference: not given; direction: higher = stronger binding; quantity: E-score
Target: Histone acetyltransferase KAT6A, winged helix 2, GST fusion (KAT6A, Homo sapiens, UniProt Q92794, residues 85-181)
Notes: 8-mer, flanks averaged, mean of 2 arrays, mostly near background
Target sequence (chain): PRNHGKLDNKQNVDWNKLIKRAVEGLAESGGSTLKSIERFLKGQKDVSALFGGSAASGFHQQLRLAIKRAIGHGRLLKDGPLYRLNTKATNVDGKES
GAAGAAAA: 0.0887
GGAAGGAC: 0.0227
CTTCGCGA: 0.183
ACTCCGAA: 0.0281
TAATTACA: 0.043
GGCTATCA: 0.0707

Other studies, line by line
PhoQ, residues 284 288 289 292 302 303 SCEHLI — fold induction (PhoP, residues 12 14 15 18 19 IQSYL (Escherichia coli, UniProt P23836); Sort-seq, item: YFP reporter; E. coli; PhoQ-PhoP variant library, with: 10 µM Mg2+; reference: high Mg2+ state, higher = stronger signaling): 9.55

A few entries again (block 2):
GCTACCCCGGCCTGCCGTGTGGCTCTCTGTGCGAAGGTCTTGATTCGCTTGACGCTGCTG: 52.1 a.u.
ATTTCTTTTCCAATTCACGGGTCAATTTGGTTTGGAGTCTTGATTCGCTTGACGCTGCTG: 108 a.u.
